Assay results gathered from unrelated publications.
± marks the error that the study gave.
Cell line: human erythrocytes

SMILES	tested at	time	temperature	notes	baseline	measurement	result
CCCCCCCCCC(=O)NCC(=O)N[C@@H](CC(C)C)C(=O)N[C@@H](CC(C)C)C(=O)N[C@@H](CCCCN)C(=O)N[C@@H](CCCNC(=N)N)C(=O)N[C@H](C(=O)N[C@@H](CCCCN)C(=O)N[C@H](C(=O)N[C@@H](CC(C)C)C(=O)N[C@@H](CC(C)C)C(=O)NCCCC[C@H](NC(=O)[C@H](CC(C)C)NC(=O)[C@H](CC(C)C)NC(=O)[C@@H](NC(=O)[C@H](CCCCN)NC(=O)[C@@H](NC(=O)[C@H](CCCNC(=N)N)NC(=O)[C@H](CCCCN)NC(=O)[C@H](CC(C)C)NC(=O)[C@H](CC(C)C)NC(=O)CNC(=O)CCCCCCCCC)[C@@H](C)CC)[C@@H](C)O)C(N)=O)[C@@H](C)O)[C@@H](C)CC	–	1 h	37 °C	10% haemolysis	–	minimum haemolytic concentration	26.6 µM
CC[C@H](C)[C@H](NC(=O)[C@H](CC(C)C)NC(=O)CNC(=O)[C@H](CCCCN)NC(=O)[C@@H](NC(=O)[C@@H](NC(=O)[C@H](CC(N)=O)NC(=O)[C@H](Cc1c[nH]c2ccccc12)NC(=O)[C@@H](NC(=O)[C@H](CCC(=O)O)NC(=O)CNC(=O)[C@H](Cc1c[nH]c2ccccc12)NC(=O)[C@@H](N)CC(C)C)[C@@H](C)CC)[C@@H](C)O)C(C)C)C(N)=O	up to 10 µg/mL	1 h	37 °C	–	–	viability	> 95%
CCCCCCCCCCCC(=O)NCC(=O)N[C@@H](CC(C)C)C(=O)N[C@@H](CC(C)C)C(=O)N[C@@H](CCCCN)C(=O)N[C@@H](CCCNC(=N)N)C(=O)N[C@H](C(=O)N[C@@H](CCCCN)C(=O)N[C@H](C(=O)N[C@@H](CC(C)C)C(=O)N[C@@H](CC(C)C)C(=O)NCCCC[C@H](NC(=O)[C@H](CC(C)C)NC(=O)[C@H](CC(C)C)NC(=O)[C@@H](NC(=O)[C@H](CCCCN)NC(=O)[C@@H](NC(=O)[C@H](CCCNC(=N)N)NC(=O)[C@H](CCCCN)NC(=O)[C@H](CC(C)C)NC(=O)[C@H](CC(C)C)NC(=O)CNC(=O)CCCCCCCCCCC)[C@@H](C)CC)[C@@H](C)O)C(N)=O)[C@@H](C)O)[C@@H](C)CC	–	1 h	37 °C	10% haemolysis	–	minimum haemolytic concentration	15.2 µM
CC[C@H](C)[C@H](NC(=O)[C@H](CC(=O)O)NC(=O)[C@H](Cc1ccccc1)NC(=O)[C@H](CC(C)C)NC(=O)CN)C(=O)N[C@H](C(=O)N[C@@H](CCCCN)C(=O)N[C@@H](CCCCN)C(=O)N[C@H](C(=O)N[C@@H](CC(C)C)C(=O)N[C@@H](CCCCN)C(=O)N[C@@H](CC(C)C)C(=O)N[C@@H](CC(C)C)C(=O)N[C@@H](CCCCN)C(N)=O)C(C)C)C(C)C	–	1 h	37 °C	hemolysis ≤5%	–	minimal hemolytic concentration	8 µM
CC[C@@H](CC(=O)N[C@@H](CCCNC(=N)N)CC(=O)N[C@H](CC(=O)N[C@@H](CC)CC(=O)N[C@@H](CCCNC(=N)N)CC(=O)N[C@H](CC(=O)N[C@@H](CC)CC(=O)N[C@@H](CCCNC(=N)N)CC(N)=O)[C@@H](C)CC)[C@@H](C)CC)NC(=O)C[C@@H](N)[C@@H](C)CC	antifungal MIC	1 h	37 °C	–	melittin	haemolysis	4.5 ± 3.2%
CC[C@@H](C)[C@H](NC(=O)[C@H](C)NC(=O)[C@H](CCCCN)NC(=O)[C@H](CC(C)C)NC(=O)[C@H](C)NC(=O)[C@@H](NC(=O)[C@H](Cc1c[nH]cn1)NC(=O)[C@H](CC(C)C)NC(=O)[C@@H](NC(=O)[C@@H](NC(=O)[C@H](CCCCN)NC(=O)[C@H](CCCCN)NC(=O)[C@H](C)NC(=O)[C@H](CO)NC(=O)[C@H](CCCCN)NC(=O)[C@H](Cc1ccccc1)NC(=O)[C@@H](NC(=O)[C@H](CCCCN)NC(=O)[C@H](CC(C)C)NC(=O)[C@H](Cc1ccccc1)NC(=O)[C@H](CO)NC(=O)[C@H](CCCCN)NC(=O)[C@H](Cc1c[nH]c2ccccc12)NC(=O)[C@H](CCCCN)NC(C)=O)[C@@H](C)O)[C@@H](C)O)C(C)C)[C@@H](C)O)C(=O)N[C@@H](CO)C(=O)N[C@@H](CO)C(N)=O	–	1 h	37 °C	–	–	minimal haemolytic concentration	500 µg/mL
CC[C@@H](CC(=O)N[C@@H](CCCNC(=N)N)CC(=O)N[C@H]1CCCC[C@@H]1C(=O)N[C@@H](CC)CC(=O)N[C@@H](CCCNC(=N)N)CC(=O)N[C@H]1CCCC[C@@H]1C(=O)N[C@@H](CC)CC(=O)N[C@@H](CCCNC(=N)N)CC(N)=O)NC(=O)[C@H]1CCCC[C@@H]1NC(=O)C[C@@H](N)Cc1ccc(O)cc1	antifungal MIC	1 h	37 °C	–	melittin	haemolysis	7.5 ± 5.2%
CC[C@H](C)[C@H](NC(=O)[C@H](Cc1c[nH]c2ccccc12)NC(=O)[C@H](CCCCN)NC(=O)[C@H](CC(C)C)NC(=O)[C@@H](NC(=O)[C@@H](NC(=O)CNC(=O)[C@H](CCCCN)NC(=O)[C@H](Cc1c[nH]cn1)NC(=O)[C@H](CCCCN)NC(=O)[C@H](Cc1c[nH]c2ccccc12)NC(=O)[C@H](C)NC(=O)[C@H](CC(C)C)NC(=O)[C@H](CO)NC(=O)[C@@H](NC(=O)[C@H](Cc1ccc(O)cc1)NC(=O)[C@H](CCCCN)NC(=O)[C@H](CCC(N)=O)NC(=O)CNC(=O)[C@H](CCCCN)NC(=O)[C@@H](NC(=O)[C@H](C)NC(=O)[C@H](CC(C)C)NC(=O)[C@H](Cc1ccccc1)NC(=O)[C@H](CCC(N)=O)NC(=O)[C@@H](NC(=O)[C@H](CC(C)C)NC(=O)[C@H](CCCCN)NC(=O)[C@H](CCSC)NC(=O)[C@H](Cc1ccccc1)NC(=O)[C@H](C)NC(=O)[C@H](C)NC(=O)[C@H](CCSC)NC=O)[C@@H](C)CC)[C@@H](C)O)C(C)C)[C@@H](C)O)[C@@H](C)CC)C(=O)N[C@@H](CC(N)=O)C(=O)N[C@@H](C)C(=O)NCC(=O)N[C@@H](CCC(N)=O)C(=O)N[C@@H](CO)C(=O)N[C@@H](Cc1ccccc1)C(=O)N[C@@H](CCC(=O)O)C(=O)N[C@@H](Cc1c[nH]c2ccccc12)C(=O)N[C@H](C(=O)N[C@@H](Cc1ccc(O)cc1)C(=O)N[C@@H](CCCCN)C(=O)N[C@@H](CCC(N)=O)C(=O)N[C@H](C(=O)N[C@@H](CCCCN)C(=O)N[C@@H](CCCCN)C(=O)N[C@@H](CC(C)C)C(=O)N[C@@H](Cc1c[nH]c2ccccc12)C(=O)N[C@@H](C)C(=O)O)[C@@H](C)CC)[C@@H](C)CC	concentration not given	–	–	–	MIC against Gram-positive bacteria	non-haemolytic concentration	> 100 x MIC

Some of these lines once more:
SMILES	tested at	time	temperature	notes	baseline	measurement	result
CC[C@@H](C)[C@H](NC(=O)[C@H](C)NC(=O)[C@H](CCCCN)NC(=O)[C@H](CC(C)C)NC(=O)[C@H](C)NC(=O)[C@@H](NC(=O)[C@H](Cc1c[nH]cn1)NC(=O)[C@H](CC(C)C)NC(=O)[C@@H](NC(=O)[C@@H](NC(=O)[C@H](CCCCN)NC(=O)[C@H](CCCCN)NC(=O)[C@H](C)NC(=O)[C@H](CO)NC(=O)[C@H](CCCCN)NC(=O)[C@H](Cc1ccccc1)NC(=O)[C@@H](NC(=O)[C@H](CCCCN)NC(=O)[C@H](CC(C)C)NC(=O)[C@H](Cc1ccccc1)NC(=O)[C@H](CO)NC(=O)[C@H](CCCCN)NC(=O)[C@H](Cc1c[nH]c2ccccc12)NC(=O)[C@H](CCCCN)NC(C)=O)[C@@H](C)O)[C@@H](C)O)C(C)C)[C@@H](C)O)C(=O)N[C@@H](CO)C(=O)N[C@@H](CO)C(N)=O	–	1 h	37 °C	–	–	minimal haemolytic concentration	500 µg/mL
